Measured values collected from several papers.
Each numbered part is a random draw from the data of one study; scales do not carry over between parts. Changes are numbered by the printed parent chain.

Sample 1
Target: Histone acetyltransferase KAT6A, winged helix 1, GST fusion (KAT6A, Homo sapiens, UniProt Q92794, residues 1-85)
Technique: protein binding microarray
Molecule type: double-stranded DNA, one strand shown
Medium: in vitro
Tested at: not given
Setting: 8-mer, flanks averaged, mean of 2 arrays, mostly near background
Reference: not given
Direction: higher = stronger binding
Residues (chain): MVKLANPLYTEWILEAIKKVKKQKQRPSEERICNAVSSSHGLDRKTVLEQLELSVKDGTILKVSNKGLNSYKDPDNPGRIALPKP
`CCAGGCTA` has an E-score of -0.219.
`GCCGGGAC` has an E-score of 0.339.
With `GGATGATA` the E-score was -0.15.
With `GTATATGA` the E-score was -0.0665.
`CCTACCAG` gave an E-score of -0.0532.
`CTATGTCC` gave an E-score of -0.0444.
The E-score of `CTGATCGC` is reported as 0.127.
With `TCGGCTAA` the E-score was 0.253.
`GGAATTAA` has an E-score of -0.0591.
`ACATGCTG` has an E-score of -0.181.
For `CATAAAGA`, the E-score was -0.13.
`CGCATGAC` has an E-score of 0.147.
`CTACCCGA` has an E-score of 0.0826.
For `AGGCGATC`, the E-score was -0.0384.
`CATGCAAA` gave an E-score of -0.065.
With `CGCAGGAC` the E-score was 0.159.
`CCACCCTC` has an E-score of -0.176.
The E-score of `ACTAAAGT` is reported as -0.162.
With `AGCTTACA` the E-score was -0.0151.
For `AAGTTCGG`, the E-score was -0.188.
For `GAAGGGGC`, the E-score was -0.0773.
The E-score of `GAGACCTA` is reported as -0.121.
For `CGGTATTC`, the E-score was 0.208.
With `ACAATAGA` the E-score was -0.0723.
`AGCCTACG` has an E-score of 0.156.

Sample 2
Target: RNA binding protein fox-1 homolog 2, RRM domain, GST-SBP tag (RBFOX2, Homo sapiens, UniProt O43251-10, residues 100-194)
Technique: RNA Bind-n-Seq
Molecule type: RNA
Medium: in vitro
Tested at: 365 nM
Setting: natural RNA segment, single round, ends assumed
Reference: no-protein control
Direction: higher = stronger binding
All sequences stand within: GGGAGUUCUACAGUCCGACGAUC … UGGAAUUCUCGGGUGCCAA
Target sequence (chain): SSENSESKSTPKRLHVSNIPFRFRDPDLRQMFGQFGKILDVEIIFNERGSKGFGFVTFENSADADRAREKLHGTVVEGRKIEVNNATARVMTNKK
`GCUUGUAUGUUUGGUUUGUUGUUUUUGUUUUUUUGUUUUUUUUAAUGCACAACUUGCUUGUACAGGUCAACUGUCCAUCUUGGGUACUAUUUAACUGUCAAACAGAGGAA`: “RBNS enrichment (R)” 5.57.
`UUUGACUUGCAUCUGAGAGUUUCUUGUUUCAGUAAAAAAAGAAAAGACAAAAAAAUCAGCUUUGGAAAGUAAUUUAAAUGUACCUUAUUUUUUUUUUCUUUAUGUUUUCU`: “RBNS enrichment (R)” 2.5.
Under “RBNS enrichment (R)”, `UAGGGAUCCAUAGAUAAAUAAGCUACUAACAAACUGAUAACAGUGGUGUUCCAUCUCUCUAUCAUGUCUCCUGAGUCCGUUUCACGUUUUUGAGCCUGGCUAAUGAGAAA` is recorded as 0.448.
Under “RBNS enrichment (R)”, `AACUGUGUCCACCCUCCCUGGUCCCUACCCCCAAGUCACAGGUGACUCAGCAGUGACCCUGUGUGCCAGGCCAGAUCCAAACUGAGAGGGAAGGUGUCGUUUUUACACUG` is recorded as 0.303.
For `UCUCUCCUUAGGGAGCUCGAGUCCUGGUGGGGAGAACAGGAGUAAACAAGGACUUGACAAAGCUGAAGAGUUAUCAGUCCUUUGACAAGGACAGGUGGGGCAGGGAGCAA`, “RBNS enrichment (R)” read 0.555.
Under “RBNS enrichment (R)”, `CCGGUCUAUGUCGAGAGCUGGCCAAAGAGCCUUUCCAAAGAGGAGCGAUGGGCCCCUGGCCCCGCCUGCCUGCCACCCUGCCCCUUGCCAUCCAUUCUGGAAACACCUGU` is recorded as 0.894.
For `UGUAAAAUAUGAACAAGGAUUCAUGAUUUGUAAAUGCUGUUUAUUUAUUGAUUGCUUCUUUCCAAAAUCGAAAAGAAAGAAAAAAGAACGUGACAGGAGAAGGGAAGCUG`, “RBNS enrichment (R)” read 0.699.
`AGGCUUUGGGGACCUCUGUUCCUGGGCCACCCUGCCCGUGGGCACCCUCUACCUUGGGGCACGUUCUAGCACCCCAUUCCUGACUCCUGGAAGAUGCACUUGCCCCGACA`: “RBNS enrichment (R)” 0.612.

Sample 3
Target: Interferon regulatory factor 3, full length, phosphomimetic (IRF3, Homo sapiens, UniProt Q14653, residues 1-427, S386D/S396D/S398D/S402D/T404D/S405D)
Technique: protein-binding microarray
Molecule type: double-stranded DNA, one strand shown
Medium: in vitro
Tested at: 2540 nM top
Setting: 60-bp whole probe
Together with: salmon DNA 0.4 mg/ml
Reference: random background probes
Direction: higher = stronger binding
All sequences stand within: GCCTAGCAC … GTCTTGATTCGCTTGACGCTGCTG
Residues (chain): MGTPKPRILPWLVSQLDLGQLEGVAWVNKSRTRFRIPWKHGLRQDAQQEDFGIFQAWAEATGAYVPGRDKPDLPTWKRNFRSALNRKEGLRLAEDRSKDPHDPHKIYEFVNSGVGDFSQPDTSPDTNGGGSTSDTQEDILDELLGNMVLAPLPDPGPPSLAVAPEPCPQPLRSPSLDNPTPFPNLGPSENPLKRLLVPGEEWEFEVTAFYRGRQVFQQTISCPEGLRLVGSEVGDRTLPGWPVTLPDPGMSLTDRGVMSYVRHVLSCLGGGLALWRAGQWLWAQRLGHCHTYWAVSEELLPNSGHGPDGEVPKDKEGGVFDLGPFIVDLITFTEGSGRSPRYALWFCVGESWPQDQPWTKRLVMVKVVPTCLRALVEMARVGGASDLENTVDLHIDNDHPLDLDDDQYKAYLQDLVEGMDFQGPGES
Under “fitted relative affinity”, `GACGGACTGGGTAACGGGACGTGCTAG` is recorded as -0.528 z-score.
`GACGGTATCGACATTGGGGACGTGCTA`: “fitted relative affinity” 0.663 z-score.
`TCACTTTTTGCACTCTCACTGTGCTAG` — result for “fitted relative affinity”: 1.21 z-score.
Under “fitted relative affinity”, `GACGATTTCGGTTATCGAGACGTGCTA` is recorded as 4.15 z-score.
Under “fitted relative affinity”, `AGCCTTATCCCTAATCTCAGCGTGCTA` is recorded as 0.716 z-score.
`TTAGGTTTCGGGTATCTGTTAGTGCTA` — result for “fitted relative affinity”: 3.97 z-score.
`TCAGCTCACACCTGTCATACTGTGCTA` — result for “fitted relative affinity”: -0.0593 z-score.
For `TGAGGACTGCTTTTCCTTTAGTGCTAG`, “fitted relative affinity” read 0.482 z-score.
Under “fitted relative affinity”, `TTTGGACTGGGGTTTCGGTTAGTGCTA` is recorded as 2.11 z-score.
For `TCCTCTCTCTTTCCACTTGTGTGCTAG`, “fitted relative affinity” read 1.99 z-score.
`TTCTCTCTGGCCCTCCTGAGGTGCTAG`: “fitted relative affinity” 0.647 z-score.
`CACGAACTGAGTATCGAGACGTGCTAG`: “fitted relative affinity” 0.125 z-score.
For `GATGGACTGGACTTTCGGGACGTGCTA`, “fitted relative affinity” read -0.0774 z-score.
For `GAGTCTTCCCTTTTAAGTTCGTGCTAG`, “fitted relative affinity” read 2.79 z-score.
Under “fitted relative affinity”, `GGTCAGTCAGGTCACTTCTGGTGCTAG` is recorded as -0.19 z-score.
For `TTAGGGATCGGTCTCGGTTAGTGCTAG`, “fitted relative affinity” read 1.63 z-score.
For `GACGGACTCCTTCTCCTGACGTGCTAG`, “fitted relative affinity” read 1.83 z-score.
For `TCACTTTACTCACTCGGACTGTGCTAG`, “fitted relative affinity” read 1.01 z-score.

Sample 4
Target: Protein C-ets-1 (ETS1, Homo sapiens, UniProt P14921, residues 1-441, K379A, full length assumed)
Technique: protein-binding microarray
Molecule type: double-stranded DNA, one strand shown
Medium: in vitro
Tested at: not given
Setting: k-mer, scored over probes, only values ≥0.25
Direction: higher = stronger binding
Target sequence (chain): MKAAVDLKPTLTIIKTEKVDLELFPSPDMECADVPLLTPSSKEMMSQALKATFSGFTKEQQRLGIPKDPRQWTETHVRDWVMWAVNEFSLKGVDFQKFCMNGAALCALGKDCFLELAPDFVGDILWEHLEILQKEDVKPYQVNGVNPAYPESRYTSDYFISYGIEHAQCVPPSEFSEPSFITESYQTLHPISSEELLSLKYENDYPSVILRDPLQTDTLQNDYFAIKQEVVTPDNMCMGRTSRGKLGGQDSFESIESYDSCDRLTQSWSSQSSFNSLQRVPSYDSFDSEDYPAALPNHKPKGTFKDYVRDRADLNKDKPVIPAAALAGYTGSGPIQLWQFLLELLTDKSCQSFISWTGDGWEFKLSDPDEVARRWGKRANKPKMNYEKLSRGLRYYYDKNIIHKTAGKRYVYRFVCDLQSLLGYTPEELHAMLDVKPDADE
`ACTTCCGG` has an E-score of 0.478.
`ATATTACC` has an E-score of 0.251.
The E-score of `GATAATAC` is reported as 0.273.
`CGTGTGTA` gave an E-score of 0.302.
With `AGGGGAGG` the E-score was 0.268.
`ACCCCCGG` has an E-score of 0.422.
`GAACGACA` has an E-score of 0.302.
With `AAGCGGAA` the E-score was 0.29.
With `CCGGGTAC` the E-score was 0.311.
The E-score of `ACCGGCAA` is reported as 0.357.
`AACCGGCG` gave an E-score of 0.414.
For `CCGACGAA`, the E-score was 0.301.
For `CGTCGTAC`, the E-score was 0.294.
For `GCCGGAAC`, the E-score was 0.356.
`TAACGACA` has an E-score of 0.257.
`AAATATCT` has an E-score of 0.275.
With `AACCCATA` the E-score was 0.253.
`TAACCACA` has an E-score of 0.261.
`ACGCCGGA` has an E-score of 0.302.
`ATGATGTA` has an E-score of 0.265.
For `CTAATTAG`, the E-score was 0.251.

Sample 5
Target: CCNA1, cyclin fold, Cln2 fusion (human)
Technique: yeast growth competition, sequencing
Medium: yeast
Setting: weak parent motif
Reference: not given
Direction: higher = stronger binding
Parent: CDKN1B docking peptide (human); PSACRNLFGPVDH
For `PSMCRNLFGPVDH [A3M]`, “normalised enrichment score” read 0.368.
Under “normalised enrichment score”, `PSACRNLFGPCDH [V11C]` is recorded as 0.202.
Under “normalised enrichment score”, `PSACRNLFGPVYH [D12Y]` is recorded as 0.332.
For `PSACRNLFRPVDH [G9R]`, “normalised enrichment score” read -0.0166.
Under “normalised enrichment score”, `ISACRNLFGPVDH [P1I]` is recorded as 0.237.
Under “normalised enrichment score”, `PSACRNLFGPVPH [D12P]` is recorded as 0.0846.
`PSASRNLFGPVDH [C4S]` — result for “normalised enrichment score”: 0.278.
`PSRCRNLFGPVDH [A3R]` — result for “normalised enrichment score”: 0.348.
`PSACRNLFGPVDN [H13N]` — result for “normalised enrichment score”: 0.279.
For `PSACRNLFGNVDH [P10N]`, “normalised enrichment score” read 0.286.
For `SSACRNLFGPVDH [P1S]`, “normalised enrichment score” read 0.118.
`PSAVRNLFGPVDH [C4V]` — result for “normalised enrichment score”: 0.073.
Under “normalised enrichment score”, `TSACRNLFGPVDH [P1T]` is recorded as 0.576.
For `PSACRNLFGPVWH [D12W]`, “normalised enrichment score” read 0.477.
Under “normalised enrichment score”, `PSACRNLFGGVDH [P10G]` is recorded as 0.348.
`PSACRNEFGPVDH [L7E]` — result for “normalised enrichment score”: 0.196.
`PSACRPLFGPVDH [N6P]` — result for “normalised enrichment score”: -0.0506.
Under “normalised enrichment score”, `PSACRNLQGPVDH [F8Q]` is recorded as 0.332.
Under “normalised enrichment score”, `PSACRNLFIPVDH [G9I]` is recorded as 0.291.
`PSACRNLFWPVDH [G9W]` — result for “normalised enrichment score”: 0.293.
`PSACRNLFGPVMH [D12M]` — result for “normalised enrichment score”: 0.248.
`PSACRNLFSPVDH [G9S]`: “normalised enrichment score” 0.15.
`PNACRNLFGPVDH [S2N]`: “normalised enrichment score” 0.183.
`PLACRNLFGPVDH [S2L]`: “normalised enrichment score” 0.451.
Under “normalised enrichment score”, `PAACRNLFGPVDH [S2A]` is recorded as 0.336.

A few entries again (sample 4):
`TAACCACA` has an E-score of 0.261.
With `CCGGGTAC` the E-score was 0.311.
With `AAGCGGAA` the E-score was 0.29.
The E-score of `ACCGGCAA` is reported as 0.357.
With `AACCCATA` the E-score was 0.253.
For `CCGACGAA`, the E-score was 0.301.
For `GCCGGAAC`, the E-score was 0.356.
`TAACGACA` has an E-score of 0.257.
`CGTGTGTA` gave an E-score of 0.302.
`GAACGACA` has an E-score of 0.302.
`AAATATCT` has an E-score of 0.275.
`ATATTACC` has an E-score of 0.251.
`ATGATGTA` has an E-score of 0.265.
